Experimental data gathered from unrelated publications.
Protocols differ between the studies behind these lines. “And” joins repeats or separate records; there may be more than shown. ± marks the error that the study gave.
Chain of UniProt P51575 (whole entry, unmodified, looked up): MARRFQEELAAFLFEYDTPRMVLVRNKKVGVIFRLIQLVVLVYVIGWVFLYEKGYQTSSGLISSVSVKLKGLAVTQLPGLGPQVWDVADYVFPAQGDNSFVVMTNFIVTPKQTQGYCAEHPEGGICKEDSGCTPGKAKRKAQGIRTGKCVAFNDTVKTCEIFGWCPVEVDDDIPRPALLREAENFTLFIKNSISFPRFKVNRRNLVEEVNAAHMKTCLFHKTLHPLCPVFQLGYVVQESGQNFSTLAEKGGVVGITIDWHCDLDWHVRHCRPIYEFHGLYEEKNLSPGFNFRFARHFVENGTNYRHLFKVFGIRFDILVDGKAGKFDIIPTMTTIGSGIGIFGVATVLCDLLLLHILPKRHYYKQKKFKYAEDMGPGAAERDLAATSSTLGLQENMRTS
Chain of UniProt P19793 (whole entry, looked up): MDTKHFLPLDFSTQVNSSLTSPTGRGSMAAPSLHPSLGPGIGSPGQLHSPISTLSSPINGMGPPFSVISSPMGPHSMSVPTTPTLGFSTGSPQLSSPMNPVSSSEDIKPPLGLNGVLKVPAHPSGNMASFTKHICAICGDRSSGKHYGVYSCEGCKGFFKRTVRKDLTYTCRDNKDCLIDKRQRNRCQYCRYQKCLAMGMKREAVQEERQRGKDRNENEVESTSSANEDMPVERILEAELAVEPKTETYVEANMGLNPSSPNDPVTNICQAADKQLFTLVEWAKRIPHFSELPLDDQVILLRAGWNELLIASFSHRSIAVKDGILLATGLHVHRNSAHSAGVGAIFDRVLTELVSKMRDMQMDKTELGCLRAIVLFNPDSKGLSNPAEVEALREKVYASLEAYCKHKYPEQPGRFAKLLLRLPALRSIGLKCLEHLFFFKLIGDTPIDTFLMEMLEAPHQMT
Chain of UniProt Q16774 (whole entry, unmodified, looked up): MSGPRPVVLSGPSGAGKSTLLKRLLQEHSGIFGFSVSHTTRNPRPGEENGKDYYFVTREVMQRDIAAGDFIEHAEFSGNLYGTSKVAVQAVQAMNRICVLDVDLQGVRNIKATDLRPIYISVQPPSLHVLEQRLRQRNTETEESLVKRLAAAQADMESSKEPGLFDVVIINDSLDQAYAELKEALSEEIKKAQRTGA
Chain of UniProt Q99572 (whole entry, unmodified, looked up): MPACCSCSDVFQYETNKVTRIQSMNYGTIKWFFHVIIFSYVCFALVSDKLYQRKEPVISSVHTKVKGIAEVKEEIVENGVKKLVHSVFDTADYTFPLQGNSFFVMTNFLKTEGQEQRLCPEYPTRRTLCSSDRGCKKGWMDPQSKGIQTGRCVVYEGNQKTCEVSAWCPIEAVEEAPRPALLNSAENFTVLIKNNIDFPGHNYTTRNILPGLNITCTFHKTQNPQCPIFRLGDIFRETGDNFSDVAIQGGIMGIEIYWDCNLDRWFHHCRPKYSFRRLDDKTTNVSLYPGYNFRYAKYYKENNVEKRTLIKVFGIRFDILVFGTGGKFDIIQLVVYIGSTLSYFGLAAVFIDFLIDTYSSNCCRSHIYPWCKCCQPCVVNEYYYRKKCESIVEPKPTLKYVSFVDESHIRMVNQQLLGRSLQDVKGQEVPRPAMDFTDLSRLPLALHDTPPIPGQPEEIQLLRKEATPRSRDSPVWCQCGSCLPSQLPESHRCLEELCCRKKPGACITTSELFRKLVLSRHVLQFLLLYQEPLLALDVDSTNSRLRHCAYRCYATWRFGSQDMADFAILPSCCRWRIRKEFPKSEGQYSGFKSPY
Chain of UniProt P43681 (whole entry, looked up): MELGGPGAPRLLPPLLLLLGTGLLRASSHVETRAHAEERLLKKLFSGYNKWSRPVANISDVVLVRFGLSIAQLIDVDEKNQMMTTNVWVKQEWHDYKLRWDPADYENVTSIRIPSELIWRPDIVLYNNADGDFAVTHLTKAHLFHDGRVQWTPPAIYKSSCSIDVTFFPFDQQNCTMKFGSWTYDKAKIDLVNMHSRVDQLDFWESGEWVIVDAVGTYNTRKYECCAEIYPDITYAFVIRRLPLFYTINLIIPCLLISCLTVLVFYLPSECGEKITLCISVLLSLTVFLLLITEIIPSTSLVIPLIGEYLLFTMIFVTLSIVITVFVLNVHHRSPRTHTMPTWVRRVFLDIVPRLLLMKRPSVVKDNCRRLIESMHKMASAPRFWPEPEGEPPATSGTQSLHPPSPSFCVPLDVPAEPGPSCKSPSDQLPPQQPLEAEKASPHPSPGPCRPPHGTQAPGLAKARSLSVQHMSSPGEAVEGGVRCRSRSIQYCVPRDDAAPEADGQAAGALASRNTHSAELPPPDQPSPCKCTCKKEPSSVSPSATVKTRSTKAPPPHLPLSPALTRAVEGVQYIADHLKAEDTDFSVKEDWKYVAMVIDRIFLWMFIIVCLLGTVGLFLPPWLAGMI
Chain of UniProt P11388 (whole entry, looked up): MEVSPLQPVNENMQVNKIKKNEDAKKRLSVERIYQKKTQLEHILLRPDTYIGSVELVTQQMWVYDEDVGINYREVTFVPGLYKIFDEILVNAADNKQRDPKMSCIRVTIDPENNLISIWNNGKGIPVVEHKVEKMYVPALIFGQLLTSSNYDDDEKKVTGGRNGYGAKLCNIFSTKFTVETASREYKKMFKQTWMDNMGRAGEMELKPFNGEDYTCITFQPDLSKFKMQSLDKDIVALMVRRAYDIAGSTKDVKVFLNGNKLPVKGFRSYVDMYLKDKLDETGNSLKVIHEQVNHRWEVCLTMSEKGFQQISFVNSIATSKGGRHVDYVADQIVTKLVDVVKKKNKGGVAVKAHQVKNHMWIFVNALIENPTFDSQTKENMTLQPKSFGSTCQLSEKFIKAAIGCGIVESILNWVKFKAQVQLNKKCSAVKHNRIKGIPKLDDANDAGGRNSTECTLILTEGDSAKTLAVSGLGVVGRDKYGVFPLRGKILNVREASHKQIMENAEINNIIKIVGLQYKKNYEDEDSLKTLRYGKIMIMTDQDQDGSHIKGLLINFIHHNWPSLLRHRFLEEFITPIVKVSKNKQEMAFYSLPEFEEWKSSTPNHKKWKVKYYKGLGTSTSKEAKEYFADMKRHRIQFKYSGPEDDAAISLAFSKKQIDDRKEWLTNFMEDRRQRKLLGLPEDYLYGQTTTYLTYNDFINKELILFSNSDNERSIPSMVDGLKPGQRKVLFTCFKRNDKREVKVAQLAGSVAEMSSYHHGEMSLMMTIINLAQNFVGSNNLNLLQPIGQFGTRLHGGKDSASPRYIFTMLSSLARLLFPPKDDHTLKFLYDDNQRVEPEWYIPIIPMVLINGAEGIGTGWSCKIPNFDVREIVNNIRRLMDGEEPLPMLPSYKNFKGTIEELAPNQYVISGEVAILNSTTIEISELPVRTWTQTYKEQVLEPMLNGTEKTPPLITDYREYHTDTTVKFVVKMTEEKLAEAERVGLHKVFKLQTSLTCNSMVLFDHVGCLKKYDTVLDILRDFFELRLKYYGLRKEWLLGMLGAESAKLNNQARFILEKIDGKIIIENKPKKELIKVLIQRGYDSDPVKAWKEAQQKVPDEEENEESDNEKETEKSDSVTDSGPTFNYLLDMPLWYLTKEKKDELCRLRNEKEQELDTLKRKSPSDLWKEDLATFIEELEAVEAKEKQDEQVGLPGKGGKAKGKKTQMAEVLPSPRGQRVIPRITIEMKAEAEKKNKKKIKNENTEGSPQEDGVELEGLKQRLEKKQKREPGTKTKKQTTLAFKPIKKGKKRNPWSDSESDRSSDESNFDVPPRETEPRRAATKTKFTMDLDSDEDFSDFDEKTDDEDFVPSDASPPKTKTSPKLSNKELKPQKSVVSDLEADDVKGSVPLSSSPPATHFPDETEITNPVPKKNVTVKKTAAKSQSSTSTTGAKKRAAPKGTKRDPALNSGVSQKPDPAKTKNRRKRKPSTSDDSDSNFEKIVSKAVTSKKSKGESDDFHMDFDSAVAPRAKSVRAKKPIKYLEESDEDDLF
Chain of UniProt Q9NRH2 (whole entry, looked up): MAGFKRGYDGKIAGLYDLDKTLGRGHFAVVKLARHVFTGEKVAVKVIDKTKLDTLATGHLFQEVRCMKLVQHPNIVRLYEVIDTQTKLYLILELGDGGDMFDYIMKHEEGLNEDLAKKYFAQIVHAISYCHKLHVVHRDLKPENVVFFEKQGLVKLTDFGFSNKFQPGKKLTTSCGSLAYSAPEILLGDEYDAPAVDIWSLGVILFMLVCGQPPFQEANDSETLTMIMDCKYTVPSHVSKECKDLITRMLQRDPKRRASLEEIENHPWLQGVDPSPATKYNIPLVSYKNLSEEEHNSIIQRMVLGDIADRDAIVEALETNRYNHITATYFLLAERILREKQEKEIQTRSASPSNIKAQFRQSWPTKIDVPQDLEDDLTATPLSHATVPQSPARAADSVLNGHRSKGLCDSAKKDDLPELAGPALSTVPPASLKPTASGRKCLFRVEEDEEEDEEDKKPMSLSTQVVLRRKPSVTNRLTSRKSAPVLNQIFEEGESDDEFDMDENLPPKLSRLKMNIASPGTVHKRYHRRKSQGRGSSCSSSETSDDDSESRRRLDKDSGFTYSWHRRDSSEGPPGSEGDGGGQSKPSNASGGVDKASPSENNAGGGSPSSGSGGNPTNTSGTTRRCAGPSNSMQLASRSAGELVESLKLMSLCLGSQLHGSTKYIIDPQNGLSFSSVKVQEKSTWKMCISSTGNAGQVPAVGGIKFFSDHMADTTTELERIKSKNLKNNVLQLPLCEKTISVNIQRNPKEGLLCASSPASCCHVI
Chain of UniProt P0DMS8 (whole entry, looked up): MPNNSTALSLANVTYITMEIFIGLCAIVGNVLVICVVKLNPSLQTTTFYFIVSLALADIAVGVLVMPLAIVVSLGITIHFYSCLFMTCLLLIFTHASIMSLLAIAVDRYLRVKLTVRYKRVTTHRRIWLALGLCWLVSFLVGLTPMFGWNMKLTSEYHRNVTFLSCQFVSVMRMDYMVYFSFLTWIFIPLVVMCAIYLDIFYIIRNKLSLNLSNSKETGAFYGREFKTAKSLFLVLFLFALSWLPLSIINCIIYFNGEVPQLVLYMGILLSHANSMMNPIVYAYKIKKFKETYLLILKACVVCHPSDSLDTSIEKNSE

O=C(c1ccc(I)cc1)N1CCC(n2cncc2-c2ccc(OS(=O)(=O)c3cccc4cnccc34)cc2)CC1  ATP-gated current (P2X purinoceptor 7 (P2RX7, Homo sapiens, UniProt Q99572); inhibitor, whole-cell voltage clamp; HEK293 stably expressing P2RX7; 300 nM, 3 min preincubation, holding -60 mV, with: ATP 5 mM): inhibited
Nc1ncnc2c1ncn2[C@@H]1O[C@H](COP(=O)(O)CP(=O)(O)OP(=O)(O)O)[C@@H](O)[C@H]1O  calcium influx (P2X purinoceptor 1 (P2RX1, Homo sapiens, UniProt P51575, D97A); calcium influx; 316 nM; baseline: ionomycin response): 84.3% and 77.9% and 91.9% and 76.4%
c1ccc(-c2n[nH]cc2-c2ccnc3ccccc23)nc1  log2 fold change (Carbon catabolite-derepressing protein kinase (SNF1, Candida albicans, UniProt P52497); kinase binding, competitor, MIB/MS competition, item: SNF1; Candida albicans cell lysate; 10 µM; baseline: DMSO): 0.723
C1CCCC1.C1CCCC1.[Cl][W][Cl]  Gibbs free energy change (Albumin (ALB, Homo sapiens, UniProt P02768); binding, fluorescence quenching; 288 K): -4.75 kcal/mol
CCOc1ccc(NC(=O)O[C@H](Cn2nc(C(C)C)cc2C(C)C)C(C)C)cc1  ACh-evoked current (Neuronal acetylcholine receptor; alpha4/beta2 (Homo sapiens, UniProt P17787+P43681); two-electrode voltage clamp; Xenopus oocytes; 3 µM, low-sensitivity stoichiometry, with: ACh 10 µM; baseline: ACh alone): 104 ± 6%
Cc1cc(C(=O)NC[C@@H](N)C(=O)O)sc1-c1ccccc1Br  Hill slope (Glutamate receptor ionotropic, NMDA 1, with GluN2D (Grin1, Rattus norvegicus, UniProt P35439); with: glutamate 300 µM): 1.24
O=[N+]([O-])c1ccc(OP(=O)(O)O)cc1  Km (alkaline phosphatase; substrate): 207 µM
Cc1ccc(C(=O)Nc2ccc3ccccc3c2)o1  reversal potential (Otop1 (Mus musculus, UniProt Q80VM9); proton current, voltage ramp patch-clamp; 10 µM, K+ bath cation): 57 mV
COc1cccc2c(Nc3ccc4[nH]c(C(=O)N/N=C/c5ccc(SC)cc5)cc4c3)cc(C)nc12  activation (Retinoic acid receptor RXR-alpha (RXRA, Homo sapiens, UniProt P19793); reporter gene, Gal4 hybrid reporter; 3 µM; baseline: vehicle): 0.98 fold
CC/C=C/CCO  relative fluorescence (uncharacterized protein (Spodoptera exigua, UniProt F1CEY0); binding, 1-NPN competitive displacement; protein 2.0 µM, with: 1-NPN 20 µM; baseline: 1-NPN without compound, lower = stronger binding): 74.9%
Nc1ncnc2c1ncn2[C@@H]1O[C@H](CO[P@](=O)(O)O[P@](=O)(O)O[P@@](=O)(O)S)[C@@H](O)[C@H]1O  ΔH (GUK1 (Homo sapiens, UniProt Q16774); ITC; molar ratio 0.9041): -1.11 kcal/mol
CNC(=O)[C@@]12C[C@@H]1[C@@H](n1cnc3c(NCc4cccc(Cl)c4)nc(C#Cc4ccc(F)c(F)c4)nc31)[C@H](O)[C@@H]2O  Emax (Adenosine receptor A3 (ADORA3, Homo sapiens, UniProt P0DMS8); cAMP formation, agonist; HEK293 overexpressing receptor): 100%
O=c1nc(SCc2cc(F)cc(C(F)(F)F)c2)nc(SCc2ccc3nc(Cl)ccc3c2)[nH]1  relaxed DNA (DNA topoisomerase 2-alpha (TOP2A, Homo sapiens, UniProt P11388); DNA relaxation; 62.5 µM, replicate 2): 0%
CC[C@@H]1[C@H](F)C(=O)N[C@@H]1COc1nccc2cc(C(N)=O)c(OC)cc12  inhibition (SNF-related serine/threonine-protein kinase (SNRK, Homo sapiens, UniProt Q9NRH2); ATP-site probe binding, ActivX profiling; THP-1 cell lysate; 0.01 mM, Lys2 site): -4.2%
NCCCC[C@H](N)C(=O)Nc1ccc2ccccc2c1  Km (Puromycin-sensitive aminopeptidase (Rattus norvegicus, UniProt F1M9V7); substrate): 5 µM
